Measurements pooled from the literature.
Numbered parts are unrelated; each lists some results of a single study. Several values in a cell are separate wells, animals, samples, runs or records.
Sequence of UniProt P78368 (whole entry, looked up): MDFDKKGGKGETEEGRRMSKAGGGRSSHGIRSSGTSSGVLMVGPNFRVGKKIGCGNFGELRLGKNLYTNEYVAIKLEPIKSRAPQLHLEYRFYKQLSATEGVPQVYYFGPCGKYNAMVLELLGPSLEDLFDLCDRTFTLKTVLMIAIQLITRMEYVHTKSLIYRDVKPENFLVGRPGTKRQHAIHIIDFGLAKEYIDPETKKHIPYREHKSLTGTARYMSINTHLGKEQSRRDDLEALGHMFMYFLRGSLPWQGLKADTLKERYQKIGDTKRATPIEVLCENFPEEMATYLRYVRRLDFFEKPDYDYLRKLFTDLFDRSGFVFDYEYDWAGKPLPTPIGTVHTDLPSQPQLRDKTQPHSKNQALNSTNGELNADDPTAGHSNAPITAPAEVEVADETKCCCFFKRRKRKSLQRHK
Sequence of UniProt Q9UM73 (whole entry, looked up): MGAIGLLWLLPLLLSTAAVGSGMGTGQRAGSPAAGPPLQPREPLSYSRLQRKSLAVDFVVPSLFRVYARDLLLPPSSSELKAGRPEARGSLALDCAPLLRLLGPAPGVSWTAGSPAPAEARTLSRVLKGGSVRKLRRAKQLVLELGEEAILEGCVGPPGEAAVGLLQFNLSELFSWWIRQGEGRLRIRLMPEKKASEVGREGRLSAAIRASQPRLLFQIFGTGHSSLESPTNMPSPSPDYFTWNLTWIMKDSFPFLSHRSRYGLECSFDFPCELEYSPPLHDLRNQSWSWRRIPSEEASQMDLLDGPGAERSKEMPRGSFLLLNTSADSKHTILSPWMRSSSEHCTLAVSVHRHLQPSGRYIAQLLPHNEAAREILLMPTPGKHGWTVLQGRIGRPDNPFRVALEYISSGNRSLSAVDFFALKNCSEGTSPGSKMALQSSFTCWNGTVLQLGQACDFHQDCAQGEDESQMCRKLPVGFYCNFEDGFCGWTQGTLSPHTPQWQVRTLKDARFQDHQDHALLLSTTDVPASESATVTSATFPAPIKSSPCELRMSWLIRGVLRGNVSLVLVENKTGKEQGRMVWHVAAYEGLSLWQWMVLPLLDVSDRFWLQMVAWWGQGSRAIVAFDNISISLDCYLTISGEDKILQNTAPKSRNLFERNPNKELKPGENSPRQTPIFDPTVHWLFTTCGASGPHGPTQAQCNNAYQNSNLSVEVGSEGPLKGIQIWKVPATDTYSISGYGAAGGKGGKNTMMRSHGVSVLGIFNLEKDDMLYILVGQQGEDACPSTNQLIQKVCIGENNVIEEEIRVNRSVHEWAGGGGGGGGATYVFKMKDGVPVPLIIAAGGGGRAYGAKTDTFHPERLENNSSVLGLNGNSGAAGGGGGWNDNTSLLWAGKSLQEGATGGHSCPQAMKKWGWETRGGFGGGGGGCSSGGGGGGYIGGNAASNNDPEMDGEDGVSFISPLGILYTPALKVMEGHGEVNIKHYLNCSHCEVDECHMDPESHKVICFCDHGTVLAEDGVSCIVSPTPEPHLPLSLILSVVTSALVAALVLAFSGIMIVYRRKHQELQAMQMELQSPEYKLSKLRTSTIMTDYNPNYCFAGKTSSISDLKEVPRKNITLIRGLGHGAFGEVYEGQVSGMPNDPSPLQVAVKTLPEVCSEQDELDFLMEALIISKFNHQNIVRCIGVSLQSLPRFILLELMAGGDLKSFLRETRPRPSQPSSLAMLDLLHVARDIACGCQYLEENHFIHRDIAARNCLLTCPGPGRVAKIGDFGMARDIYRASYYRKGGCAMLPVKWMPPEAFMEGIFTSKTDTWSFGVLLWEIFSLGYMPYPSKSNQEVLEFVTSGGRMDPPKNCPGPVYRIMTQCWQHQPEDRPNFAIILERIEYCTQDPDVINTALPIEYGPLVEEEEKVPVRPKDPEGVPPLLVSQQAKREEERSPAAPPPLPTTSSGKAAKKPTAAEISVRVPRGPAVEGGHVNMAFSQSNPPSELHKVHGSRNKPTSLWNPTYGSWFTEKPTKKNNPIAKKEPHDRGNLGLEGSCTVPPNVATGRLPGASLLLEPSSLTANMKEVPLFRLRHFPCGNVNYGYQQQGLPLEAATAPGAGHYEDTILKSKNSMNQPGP
Sequence of UniProt Q15831 (whole entry, looked up): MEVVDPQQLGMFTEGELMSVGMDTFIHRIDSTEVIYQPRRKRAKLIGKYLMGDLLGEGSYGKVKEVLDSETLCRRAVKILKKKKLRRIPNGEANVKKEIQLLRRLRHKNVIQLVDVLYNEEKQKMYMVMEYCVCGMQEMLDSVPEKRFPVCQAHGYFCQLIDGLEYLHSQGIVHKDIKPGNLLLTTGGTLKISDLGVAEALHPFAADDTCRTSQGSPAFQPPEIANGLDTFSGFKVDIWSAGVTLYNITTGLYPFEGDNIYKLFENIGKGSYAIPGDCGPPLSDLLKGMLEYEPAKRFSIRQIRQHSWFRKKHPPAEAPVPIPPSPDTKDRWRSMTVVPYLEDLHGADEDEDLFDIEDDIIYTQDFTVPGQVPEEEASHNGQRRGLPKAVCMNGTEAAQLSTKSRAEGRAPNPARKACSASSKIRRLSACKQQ
Sequence of UniProt Q6P2M8 (whole entry, looked up): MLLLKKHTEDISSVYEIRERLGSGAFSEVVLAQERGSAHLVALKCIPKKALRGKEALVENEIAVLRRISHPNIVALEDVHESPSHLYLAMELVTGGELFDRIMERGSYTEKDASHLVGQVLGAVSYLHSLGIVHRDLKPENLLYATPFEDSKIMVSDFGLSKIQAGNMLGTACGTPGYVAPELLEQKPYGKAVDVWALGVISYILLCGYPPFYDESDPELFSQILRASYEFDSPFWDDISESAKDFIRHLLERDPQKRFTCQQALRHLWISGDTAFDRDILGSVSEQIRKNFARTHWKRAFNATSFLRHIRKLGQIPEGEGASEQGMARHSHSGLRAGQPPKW
Sequence of UniProt P04629 (whole entry, looked up): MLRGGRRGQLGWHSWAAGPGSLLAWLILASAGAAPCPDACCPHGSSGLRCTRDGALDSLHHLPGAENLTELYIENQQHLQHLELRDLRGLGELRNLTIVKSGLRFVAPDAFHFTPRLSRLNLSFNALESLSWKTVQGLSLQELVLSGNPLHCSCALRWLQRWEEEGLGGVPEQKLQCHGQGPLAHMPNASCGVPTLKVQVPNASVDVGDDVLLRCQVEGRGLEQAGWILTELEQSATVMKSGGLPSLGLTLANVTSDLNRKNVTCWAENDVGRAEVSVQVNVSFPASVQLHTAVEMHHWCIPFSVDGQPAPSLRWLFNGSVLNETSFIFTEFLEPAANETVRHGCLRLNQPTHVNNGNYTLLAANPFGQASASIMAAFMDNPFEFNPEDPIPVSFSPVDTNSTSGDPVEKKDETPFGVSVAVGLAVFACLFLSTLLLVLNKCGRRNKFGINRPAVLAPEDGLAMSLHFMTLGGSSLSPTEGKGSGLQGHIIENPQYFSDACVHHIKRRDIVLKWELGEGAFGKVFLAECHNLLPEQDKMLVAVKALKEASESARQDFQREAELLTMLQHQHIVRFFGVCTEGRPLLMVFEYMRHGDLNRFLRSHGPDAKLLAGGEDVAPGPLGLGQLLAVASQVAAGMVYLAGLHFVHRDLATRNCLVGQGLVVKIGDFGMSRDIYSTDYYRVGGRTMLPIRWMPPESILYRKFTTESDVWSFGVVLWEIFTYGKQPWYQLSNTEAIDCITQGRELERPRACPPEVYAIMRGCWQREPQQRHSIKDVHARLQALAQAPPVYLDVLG

Set 1 — organism: Sarcocystis neurona; effect on: parasite growth; tested at: 10 µM; time: 96 h; notes: first screen; relative to: untreated
SMILES | log2 fold change
CCC(=O)OCC(=O)[C@@]1(OC(=O)CC)[C@@H](C)C[C@H]2[C@@H]3CCC4=CC(=O)C=C[C@]4(C)[C@@]3(Cl)[C@@H](O)C[C@@]21C | 0.25
Cc1cccc(C)c1NC(=O)C1CCCCN1C (centres unmarked) | 0.06
CC(=O)OCC(=O)[C@@]1(O)CC[C@H]2[C@@H]3C[C@H](C)C4=CC(=O)C=C[C@]4(C)[C@H]3[C@@H](O)C[C@@]21C | -0.05
Nc1c2c(nc3c1CCC3)CCCC2 | -0.2
COC(=O)C1=C(C)NC(C)=C(C(=O)OCC(C)C)C1c1ccccc1[N+](=O)[O-] (centres unmarked) | -0.24
C[C@@H](O)[C@H]1C(=O)N2C(C(=O)O)=C(S[C@@H]3CN[C@H](C(=O)N(C)C)C3)[C@H](C)[C@H]12 | -0.28
CC(=O)[C@@]1(O)CC[C@H]2[C@@H]3C[C@H](C)C4=CC(=O)C=C[C@]4(C)[C@@]3(F)[C@@H](O)C[C@@]21C | 0.26
CN1CC(=O)N2[C@H](c3ccc4c(c3)OCO4)c3[nH]c4ccccc4c3C[C@@H]2C1=O | -0.59

Set 2 — effect on: enzyme activity; tested at: 10 µM; relative to: untreated control
SMILES: Cc1sc(C(=O)NC2COC2)cc1-n1cc(NC(=O)Nc2c(F)cccc2Cl)cn1
target | remaining activity
PNCK (Homo sapiens, UniProt Q6P2M8) | 80.1%
NTRK1 (Homo sapiens, UniProt P04629) | 76.8%
ALK (Homo sapiens, UniProt Q9UM73) | 99.9%
EPHA7 (Homo sapiens, UniProt Q15375) | 95.9%
EPHA5 (Homo sapiens, UniProt P54756) | 103%
STK11 (Homo sapiens, UniProt Q15831) | 97%
CSNK1G2 (Homo sapiens, UniProt P78368) | 99.1%
MINK1 (Homo sapiens, UniProt Q8N4C8) | 102%

Set 3 — action: degrader; technique: HiBiT; cells: HEK293; tested at: 370.37 nM
Target: CRBN/Zinc finger protein Helios (Homo sapiens, UniProt Q96SW2+Q9UKS7)
Sequence of UniProt Q96SW2 (whole entry, looked up): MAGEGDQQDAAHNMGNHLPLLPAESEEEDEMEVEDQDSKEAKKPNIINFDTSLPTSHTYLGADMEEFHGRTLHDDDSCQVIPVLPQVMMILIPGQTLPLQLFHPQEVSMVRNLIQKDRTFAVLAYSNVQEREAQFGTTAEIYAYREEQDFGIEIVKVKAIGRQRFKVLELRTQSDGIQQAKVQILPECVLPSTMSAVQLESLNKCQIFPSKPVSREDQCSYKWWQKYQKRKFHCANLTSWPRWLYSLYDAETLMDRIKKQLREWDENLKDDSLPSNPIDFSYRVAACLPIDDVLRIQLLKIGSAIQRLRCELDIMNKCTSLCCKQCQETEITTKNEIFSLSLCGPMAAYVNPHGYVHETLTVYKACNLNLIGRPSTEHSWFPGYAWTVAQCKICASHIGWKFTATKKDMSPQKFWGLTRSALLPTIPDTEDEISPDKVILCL
Sequence of UniProt Q9UKS7 (whole entry, looked up): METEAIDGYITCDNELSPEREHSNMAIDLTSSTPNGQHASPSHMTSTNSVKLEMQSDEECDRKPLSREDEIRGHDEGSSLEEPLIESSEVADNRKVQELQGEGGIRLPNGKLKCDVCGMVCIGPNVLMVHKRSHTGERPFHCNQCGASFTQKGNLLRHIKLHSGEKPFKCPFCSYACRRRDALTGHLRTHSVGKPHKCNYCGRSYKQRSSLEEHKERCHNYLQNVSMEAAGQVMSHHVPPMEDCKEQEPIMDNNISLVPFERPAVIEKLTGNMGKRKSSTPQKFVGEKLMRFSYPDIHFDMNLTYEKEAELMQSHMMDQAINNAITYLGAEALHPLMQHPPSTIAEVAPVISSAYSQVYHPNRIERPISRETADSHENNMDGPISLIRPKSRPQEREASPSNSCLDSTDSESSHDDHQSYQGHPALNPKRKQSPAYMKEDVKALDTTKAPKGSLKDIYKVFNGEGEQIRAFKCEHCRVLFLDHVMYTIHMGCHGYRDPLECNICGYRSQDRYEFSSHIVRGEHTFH
SMILES | protein remaining [%]
O=C1CCC(N2Cc3c(ccc4c3OCCC43CCN(Cc4ccccc4)CC3)C2=O)C(=O)N1 (centres unmarked) | 65
O=C1CCC(N2Cc3c(ccc4c3OCC43CCC(Cc4ccccc4)CC3)C2=O)C(=O)N1 (centres unmarked) | 93.3
O=C1CCC(N2Cc3c(ccc4c3OCC43CCC(Oc4ccccc4)CC3)C2=O)C(=O)N1 (centres unmarked) | 75.6

Other studies, line by line
Structure (SMILES) | cell line | effect on | technique | tested at | together with | endpoint | result
CC[C@H](C)c1nc2cc(Nc3ccnc4ccc(S(=O)(=O)C(C)C)cc34)ccc2s1.Cl | HT-29 | necroptosis protection | CCK-8 | 10 µM | TNF-α SMAC mimetic zVAD | viability | 77.5% and 77.4% and 92.5% and 95.3% and 76.6%

Some of these lines once more (set 1):
SMILES | log2 fold change
CCC(=O)OCC(=O)[C@@]1(OC(=O)CC)[C@@H](C)C[C@H]2[C@@H]3CCC4=CC(=O)C=C[C@]4(C)[C@@]3(Cl)[C@@H](O)C[C@@]21C | 0.25
Cc1cccc(C)c1NC(=O)C1CCCCN1C (centres unmarked) | 0.06
